# Experimental data of several laboratories.
# Numbered parts are unrelated; each lists some results of a single study. Substitutions count along the parent as printed.

# Block 1
# Target: HLA class I histocompatibility antigen, A alpha chain, allele A*25:01 (Homo sapiens, UniProt P04439)
# Read-out: peptide-MHC binding
# Molecule type: peptide
# Tested at: concentration not given
Molecule,binding
SSDLRSWTF,inactive
TVIRFWHAM,inactive
RVVRPWGSY,inactive
QAHMGIAGL,inactive
TTRAVNMEV,inactive
RASHFRKLF,inactive
TTEANAGQF,inactive
EIKDRILSY,active

# Block 2
# Target: UBE2D4 UBC core domain (UniProt Q9Y2X8)
# Method: yeast two-hybrid
# Sample: yeast
# Notes: mostly zero background
# Baseline: not given
# Reading: higher = stronger interaction
# B1: RNF103 RING domain (UniProt O00237); chain WPADMLHCTECVVCLENFENGCLLMGLPCGHVFHQNCIVMWLAGGRHCCPVCRWPSYKKKQPY
# B2: MARCHF1 RING domain (UniProt Q8TCQ1); chain TAPRSQSRLSVCPSTQDICRICHCEGDEESPLITPCRCTGTLRFVHQSCLHQWIKSSDTRCCELCKYDFIMETKLKPLRKWE
# B3: TRIM11 RING domain (UniProt Q96F44); chain LSTNLQEEATCAICLDYFTDPVMTDCGHNFCRECIRRCWGQPEGPYACPECRELSPQRNLRP
# B4: RUFY1 RING domain (UniProt Q96T51); chain QALKGHAWLKDDEATHCRQCEKEFSISRRKHHCRNCGHIFCNTCSSNELALPSYPKPVRVCDSCHTLLLQRCSSTAS
# B5: ZNRF4 RING domain (UniProt Q8WWF5); chain VRTFTWHNDLCAICLDEYEEGDQLKILPCSHTYHCKCIDPWFSQAPRRSCPVCKQSVAATEDSF
# B6: BFAR RING domain (UniProt Q9NZS9); chain GPQISVSEFSCHCCYDILVNPTTLNCGHSFCRHCLALWWASSKKTECPECREKWEGFPKVS
# Target sequence (chain): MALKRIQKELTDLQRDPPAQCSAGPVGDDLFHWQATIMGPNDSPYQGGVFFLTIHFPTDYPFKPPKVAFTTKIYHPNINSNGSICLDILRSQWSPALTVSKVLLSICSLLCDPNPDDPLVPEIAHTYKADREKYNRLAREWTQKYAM
Molecule,lacZ reporter activity
LVKDFNPYITCYICKGYLIKPTTVTECLHTFCKTCIVQHFEDSNDCPRCGNQVHETNPLE (PCGF5 RING domain (UniProt Q86SE9)),0
B1 (RNF103 RING domain),16400
B2 (MARCHF1 RING domain),0
B3 (TRIM11 RING domain),0
B4 (RUFY1 RING domain),0
B5 (ZNRF4 RING domain),13000
ASPKIFQKTKCSICNSALELPSVHFLCGHSFHQHCFESYSESDADCPTCLPENRKVMDMI (VPS11 RING domain (UniProt Q9H270)),0
B6 (BFAR RING domain),0

# Block 3
# Target: CCND2, cyclin fold, Cln2 fusion (human)
# Method: yeast growth competition, sequencing
# Sample: yeast
# Notes: strong parent motif
# Baseline: not given
# Reading: higher = stronger binding
# Parent: viral docking peptide; YKVKRRLVFGADD
Variant,normalised enrichment score
R6K,1.48
R6Q,0.35
D12P,0.948
K4V,-0.00363
A11P,2
G10T,1.43
F9W,0.424
R6L,0.506

# Further values, each from its own experiment
Compound,method,measurement,value
CCOC(=O)[C@@H]1CSCC(=O)N[C@H](CC)C(=O)N(C)[C@@H](C)C(=O)N[C@@H](CC(C)C)C(=O)N(C)[C@H](C)C(=O)N(CC(C)C)CC(=O)N[C@@H](CC(C)C)C(=O)N(C)[C@H](C)C(=O)N[C@@H](CC(C)C)C(=O)N1C,PRP-column chromatography,log k' (60),0.69

# Repeated from above (block 3):
Variant,normalised enrichment score
G10T,1.43
F9W,0.424
